# Published values gathered from unrelated publications.
# A part holds a random share of what one study measured. Positions count from the first letter of the parent shown.

# Set 1
# Target: RING finger protein unkempt homolog, zinc fingers 1-6, GST-SBP tag (UNK, Homo sapiens, UniProt Q9C0B0, residues 30-357)
# Method: RNA Bind-n-Seq
# Form: RNA
# Matrix: in vitro
# Concentration: not given
# Notes: RNA with constant flanks, human-mouse chimeric sites, ends assumed
# Baseline: input RNA pool
# Direction: higher = stronger binding
# All sequences stand within: GGGAGUUCUACAGUCCGACGAUC … CAACAGAGGAUUGAGCAUCA
# Residues (chain): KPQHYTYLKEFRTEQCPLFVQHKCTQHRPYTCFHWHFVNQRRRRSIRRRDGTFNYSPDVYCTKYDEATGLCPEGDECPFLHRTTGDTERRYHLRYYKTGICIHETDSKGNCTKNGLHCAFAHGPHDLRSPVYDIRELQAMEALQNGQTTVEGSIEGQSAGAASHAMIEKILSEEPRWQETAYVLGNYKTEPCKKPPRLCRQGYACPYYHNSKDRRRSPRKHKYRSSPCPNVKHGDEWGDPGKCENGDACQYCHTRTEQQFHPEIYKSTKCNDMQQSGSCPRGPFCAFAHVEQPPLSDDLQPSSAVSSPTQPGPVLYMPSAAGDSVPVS
Oligonucleotide,bound/input enrichment [ratio]
AAACAUCUGUCUUUAAGCAUUCCAAGCGAGAAUGCUGGGGUGAUCAUUGUUGCCCAUGUGCCUUCUGACUGAGCUUUAAUGCUGUUCCAUGUUACAUCUUUCCUUCAUUGCAUAUUUGUU,0.181
ACCAUUUUCGCGGUUCAGGCUUUGUGUGUAGUUCACUCUAUGUAUUAAAUUAUUAUUCUGCUUAGCUUAUAAUAAGGAUUACAAUUGUUAAAGAGGUUACUGAAUGUUACUCUGAAACUU,0.548
UGUGAACUGUCUCUUGAGAUCUAAAAACAAGAUGACUUUUCCUGGCACAUAUUUCAAAGCAAAGACUUUGUUGCCUGCUGCUUCUUGUCUAAUUUACAGGGAUAUUUAAUUUUGUCAGGU,0.123
AAAGAGUGGAUAGAGUGUGCACAUGGAAUCGGUGGGACCCGGGCGAAAAAGGAGUGCAAGAUAGAGUUCGAUGACUUCGAAGAGUGCUUGCUUCGGUACAAAACGAUGAGACGUGCACAU,0.216
AUGGAACAUUUCGAUGCGUCACUCAGUACCUAUUUCAAGGCAUUGCUGGGCCCCCGAGAUACUAGAGUCAAAGGAUGGUUCCUCCUGGACAAUUACAUCCCUACGUUUGUCUGUUCUGUU,0.155
GAAACAUUUAAAUUUAAAGAAGCUGUUGUUCUAGGAAGUACGGACUUUCUAGAAGAUGAUAUAGAAAAAAUUGUAGAAGAACUGGGGAAAGAGUAUAAGGGCAACGCUUAUCAUUUAAUG,3.01
UAAAUUAGGGCUGCCGUUUUCUGUUUCUCCCUGGGCUGCGGAAAGCCAGGCGGUUUUAUCUAGCUUAUACAAGGCUGCUGGUGUUCCCUCUUUUUUUCCCUCUCUCUGUUUUUGGCUGCA,5.47
GUAAUGGACGUCAACACUGCUCUACAAGAGGUUCUGAAGACCGCCCUCAUCCACGAUGGCCUAGCACGUGGCAUACGCGAAGCUGCCAAAGCCUUAGACAAGCGCCAAGCCCAUCUGUGU,0.27
GCAGGAUCUUCUAAAUACCAGUGGGACAUUAUGAAAUCCCUUGGGCUCUCUGAUGACGACAUAGUGAAGUUUUCUGAAGCAGAGCACUGGCUUGAUUAUUUCCCACCACUGGCUAUUCAG,0.096
AGGAGGAGGUUAAAGGGUGAAAAUGGGGUGGAAGACUGUGUCAUGGCUCUGGAGACACUGUUCAGUGUUCUGCUUUCUCUGUGCAGACUGAUGGCCCCUUACACGCCCUUUCUGACUGAG,0.0648
CAGCCUCAGAGCCCAGACUUCCUGGAUAUUACCAACCCCAAAGCCGUAUUAGAAAAUGCAUUGAGAAACUUCGCCUGUCUGACGACUGGGGAUGUGAUUGCUAUCAACUACAAUGAGAAG,0.498

# Set 2
# Target: Histone acetyltransferase KAT6A, winged helix 1, GST fusion (KAT6A, Homo sapiens, UniProt Q92794, residues 1-85)
# Method: protein binding microarray
# Form: double-stranded DNA, one strand shown
# Matrix: in vitro
# Concentration: not given
# Notes: 8-mer, flanks averaged, mean of 2 arrays, mostly near background
# Baseline: not given
# Direction: higher = stronger binding
# Construct (chain): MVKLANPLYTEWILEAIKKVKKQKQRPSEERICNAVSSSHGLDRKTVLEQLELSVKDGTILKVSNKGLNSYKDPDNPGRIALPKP
Oligonucleotide,E-score
AAGGTCGG,0.0077
AGAACAAG,-0.156
AATGAAAA,-0.0989
GCTCCTAA,-0.0589
GCCTGGAC,-0.0623
GCACTCCC,0.116
AGATGCGC,0.299
GTAGCCTA,-0.0601
CCCTAACG,0.0677
AGAAAAGC,0.0129
GCCTAGGA,-0.218
CAGTTATC,-0.11
GACTCCCC,0.0255
AACTATCA,-0.16
TATCTCGA,-0.104
GATAAACC,0.0825
ATGGTCAC,-0.147
ATGCCGCA,0.297
GAACAACA,-0.0833
CAACTGAC,-0.0454
CAGCTAGG,-0.255

# Set 3
# Target: ABI1, truncated, D143A, DHFR fusion (Arabidopsis thaliana)
# Method: DHFR PCA, deep sequencing
# Matrix: yeast
# Notes: methotrexate growth selection, single substitutions
# Together with: (+)-ABA 0.032 µM
# Baseline: wild-type fitted maximum
# Direction: higher = stronger binding
# Starting sequence: PYL1, truncated, DHFR fusion (Arabidopsis thaliana); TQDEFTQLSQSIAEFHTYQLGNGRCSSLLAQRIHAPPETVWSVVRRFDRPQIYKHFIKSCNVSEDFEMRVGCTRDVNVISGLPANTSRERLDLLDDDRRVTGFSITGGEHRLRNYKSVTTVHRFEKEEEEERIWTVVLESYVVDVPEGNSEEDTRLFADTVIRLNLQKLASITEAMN; partner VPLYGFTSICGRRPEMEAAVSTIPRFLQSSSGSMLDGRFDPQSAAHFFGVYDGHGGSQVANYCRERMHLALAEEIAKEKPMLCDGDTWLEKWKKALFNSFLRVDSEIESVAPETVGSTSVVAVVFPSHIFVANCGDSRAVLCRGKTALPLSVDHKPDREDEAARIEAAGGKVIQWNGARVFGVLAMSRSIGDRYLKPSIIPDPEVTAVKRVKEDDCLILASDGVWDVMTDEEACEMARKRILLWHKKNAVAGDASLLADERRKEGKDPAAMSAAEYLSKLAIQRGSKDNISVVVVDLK
Substitution,relative binding score
I57L,1.88%
S150I,-3.66%
V121Y,-3.05%
D95R,-1.21%
S104F,-0.778%
F124T,-0.253%
S150Y,-8.17%
K168G,-4.15%
T160C,10.7%
F47G,-0.473%
D48L,2.92%
T17F,-5.2%
V136I,21.1%
S42Y,4.71%

# Set 4
# Target: CREB5, bZIP domain (human)
# Method: DHFR protein complementation
# Matrix: yeast
# Notes: single substitutions, most at no-binding floor
# Baseline: wild-type JUN-FOS pair
# Direction: higher = stronger binding
# Starting sequence: JUN, bZIP domain (human); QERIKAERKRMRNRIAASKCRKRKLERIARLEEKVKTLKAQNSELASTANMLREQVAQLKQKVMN; partner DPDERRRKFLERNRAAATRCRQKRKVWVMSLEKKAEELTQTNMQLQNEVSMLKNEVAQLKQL
Substitution,binding fitness [natural log]
Q41F,-1.38
E32Q,-0.464
L45V,-1.34
L38V,-1.24
V56N,-1.38
K34Y,-0.414
I28S,-0.645
E54V,-0.629
A29Y,-0.214
A40H,-0.326
R53S,-1.13
L52D,-1.33
K39A,-0.408
N42L,-1.17
L52H,-1.35

# Set 5
# Target: CCNB2, cyclin fold, Cln2 fusion (human)
# Method: yeast growth competition, sequencing
# Matrix: yeast
# Notes: weak parent motif
# Baseline: not given
# Direction: higher = stronger binding
# Starting sequence: CDC25A docking peptide (human); PPHRRRLLFACSP; partner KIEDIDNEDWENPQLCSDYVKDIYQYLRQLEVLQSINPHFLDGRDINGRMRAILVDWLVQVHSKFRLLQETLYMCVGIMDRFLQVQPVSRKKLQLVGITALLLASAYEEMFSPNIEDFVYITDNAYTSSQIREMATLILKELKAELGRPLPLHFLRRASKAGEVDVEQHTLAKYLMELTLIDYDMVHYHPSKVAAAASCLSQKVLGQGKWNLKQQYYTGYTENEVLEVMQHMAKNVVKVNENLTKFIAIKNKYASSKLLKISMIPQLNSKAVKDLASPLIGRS
Substitution,normalised enrichment score
PPHRRRTLFACSP [L7T],0.914
PPHRRRLLDACSP [F9D],-0.0633
PPHRRRLLFACRP [S12R],0.751
PPHRRTLLFACSP [R6T],0.443
PPHRSRLLFACSP [R5S],0.474
PPHRRRLLFANSP [C11N],0.109
TPHRRRLLFACSP [P1T],0.609
PPHRRRWLFACSP [L7W],0.43
PPHRRKLLFACSP [R6K],0.662
PLHRRRLLFACSP [P2L],0.49
PPHRRRLLFAPSP [C11P],0.69
PPHRRRLLFACTP [S12T],0.233
PPHRRRLLFATSP [C11T],0.243
NPHRRRLLFACSP [P1N],0.532
PPHRRRLLFACLP [S12L],0.684
PPHRRRLLFASSP [C11S],0.663
PPHRRRLLFACNP [S12N],1.03
PPHRRRLLFACDP [S12D],0.337
PPHRRRLNFACSP [L8N],0.256
PPHERRLLFACSP [R4E],-0.332
PPHRIRLLFACSP [R5I],0.734
PPHRRRLLFLCSP [A10L],0.00497
PPHRRRLWFACSP [L8W],0.801
WPHRRRLLFACSP [P1W],0.603
PPHRRRQLFACSP [L7Q],0.318

# Set 6
# Target: Sal-like protein 4, full length isoform B (SALL4, Homo sapiens, UniProt Q9UJQ4-2, residues 1-616)
# Method: universal PBM
# Form: double-stranded DNA, one strand shown
# Matrix: in vitro
# Concentration: not given
# Notes: 8-mer, flanks averaged, mean of replicates
# Direction: higher = stronger binding
Oligonucleotide,E-score
ACCGCTGG,-0.165
ACTCTCCC,-0.173
ACGCGACG,-0.156
TCCGTGCA,-0.0768
AAAACGAA,0.163
ACCACACC,-0.302
ACAACCGT,-0.0537
CTAGCCAC,-0.203
GAGTCATC,-0.185
CGCCACCC,-0.278
CGATTGAA,-0.0772
AATGGACG,0.143
GGTGCAAA,-0.0426
AAATGTCG,0.0287
AACTTTAG,0.0728
AAGTTCAT,0.14
AGGTCATG,-0.116
AGAATACT,0.149

# Set 7
# Target: Max-binding protein MNT, bHLH-zipper, MAX partner unstated (MNT, Homo sapiens, UniProt Q99583, residues 220-300)
# Method: protein-binding microarray
# Form: double-stranded DNA, one strand shown
# Matrix: in vitro
# Concentration: not given
# Notes: k-mer, scored over probes, only values ≥0.25
# Direction: higher = stronger binding
# Construct (chain): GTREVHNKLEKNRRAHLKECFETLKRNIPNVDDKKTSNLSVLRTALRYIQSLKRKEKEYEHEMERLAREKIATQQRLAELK
Oligonucleotide,E-score
ACGTGTCT,0.435
CAGGTGCA,0.268
CACGAGCG,0.346
ACGCGTTA,0.301
CGTGATTA,0.296
CACCCTCC,0.281
ACGTTTAC,0.274
ACATGTGG,0.474
CATGCCCC,0.342
CGCCGCGC,0.288
CCATGCAC,0.354
CGCATGAA,0.28
ACGCCACG,0.419
AGGAGCAC,0.258
CGTGGCAG,0.335
CGCATTGC,0.281
ACGTGAAT,0.326
CCATGGGG,0.319
CCCGTGTA,0.282
AGAGCATG,0.383
ACGCTAAC,0.308
AAGGCGTG,0.31

# Other studies, line by line
Molecule,target,test,test system,conditions,how to read,quantity,result
"PhoQ, residues 284 288 289 292 302 303 SASVAL","PhoP, residues 12 14 15 18 19 QWHVF (Escherichia coli, UniProt P23836)","Sort-seq, measured: YFP reporter",E. coli,"PhoQ-PhoP variant library, together with: 10 µM Mg2+","baseline: high Mg2+ state, higher = stronger signaling",fold induction,4.38

# A few entries again (set 3):
Substitution,relative binding score
D95R,-1.21%
V121Y,-3.05%
V136I,21.1%
F47G,-0.473%
S150Y,-8.17%
S42Y,4.71%
D48L,2.92%
S104F,-0.778%
T17F,-5.2%
F124T,-0.253%
K168G,-4.15%
S150I,-3.66%
I57L,1.88%
